Measurements of several laboratories.
Compare with care: the assays were run in different laboratories. “And” joins repeats or separate records; there may be more than shown. ± marks the error that the study gave.
Sequence of UniProt P51575 (whole entry, unmodified, looked up): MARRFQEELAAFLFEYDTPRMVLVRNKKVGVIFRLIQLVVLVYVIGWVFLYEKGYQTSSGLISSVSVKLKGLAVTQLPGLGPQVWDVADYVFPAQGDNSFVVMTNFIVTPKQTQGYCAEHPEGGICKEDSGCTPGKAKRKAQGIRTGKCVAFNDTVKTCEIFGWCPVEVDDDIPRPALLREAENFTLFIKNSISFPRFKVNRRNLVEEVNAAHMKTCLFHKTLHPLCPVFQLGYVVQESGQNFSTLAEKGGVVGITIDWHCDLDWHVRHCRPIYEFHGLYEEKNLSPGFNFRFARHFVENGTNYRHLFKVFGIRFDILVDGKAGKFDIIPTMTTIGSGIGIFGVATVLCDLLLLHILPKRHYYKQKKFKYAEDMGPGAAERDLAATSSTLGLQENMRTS

| Structure (SMILES) | target or system | test | system | setting | scale | quantity | result |
| --- | --- | --- | --- | --- | --- | --- | --- |
| CN[C@@H]1COc2c(S(=O)(=O)NC(=O)Nc3c4c(cc5c3CCC5)CCC4)cnn2C1 | – | item: IL-1β | human participants, whole blood ex vivo | 900 mg twice daily, multiple doses, 152 h, added: LPS/ATP | baseline: baseline | inhibition | 99.8% |
| CC[C@@H]1[C@H](F)C(=O)N[C@@H]1COc1nccc2cc(C(N)=O)c(OC)cc12 | – | ATP-site probe binding, ActivX profiling, item: PCTAIRE2, PCTAIRE3 | THP-1 cell lysate | 0.04 mM, Lys1 site | – | inhibition | 1.7% |
| Nc1ncnc2c1ncn2[C@@H]1O[C@H](COP(=O)(O)CP(=O)(O)OP(=O)(O)O)[C@@H](O)[C@H]1O | P2X purinoceptor 1 (P2RX1, Homo sapiens, UniProt P51575, K215A) | calcium influx | – | 3.16 nM | baseline: ionomycin response | calcium influx | 0% |
| Cc1noc(NS(=O)(=O)c2ccc(N=NN(O)c3ccccc3)cc2)c1C | – | paw oedema | rat, carrageenan oedema | oral, 100 mg/kg, 4 h after carrageenan | baseline: vehicle | inhibition | 76.6% |
| NCC(=O)Nc1cncc(-c2nn3c(=O)cc(N4CCNCC4)nc3s2)c1 | – | ADP-induced platelet aggregation, light transmission aggregometry | human, stable CAD on aspirin, ex vivo platelets | subcutaneous, 0.05 mg/kg, 120 min post-dose, mean value, added: ADP 20 µM | – | inhibition | 14.5% |
| Oc1ccc(Br)cc1C=NCCN1CCOCC1 | – | superoxide scavenging | – | 80 µM | – | inhibition | 12.2% |
| CC(C)n1ncc2c(C(=O)NCC3(C)CNC3)cc(C3CC3)nc21 | enterovirus A71 | – | Tainan/4643/1998 | 0.003 µM | – | plaque area | 93.8% and 97.8% |
| CSCCNc1nc(SCCC(F)(F)F)nc2c1ncn2[C@@H]1O[C@H](COP(=O)(O)OP(=O)(O)C(Cl)(Cl)P(=O)(O)O)[C@@H](O)[C@H]1O | – | platelet aggregation, light transmission aggregometry | human patients, platelet-rich plasma | dose not given, 2 h, added: TRAP 15 µM | – | inhibition | 20.2 ± 21.1% |
| O=C1O[C@H]([C@@H](O)CO)C(O)=C1O | – | nitric oxide scavenging | – | 160 µM | – | inhibition | 52.7% |
| CNCc1cc(-c2ccccc2F)n(S(=O)(=O)c2cccnc2)c1 | – | aspirin-induced gastric lesions | rat | oral, 2 mg/kg, 4 h | baseline: vehicle | inhibition | 59.2% |
| CCCCC1C(=O)N(c2ccccc2)N(c2ccccc2)C1=O | – | carrageenan paw oedema | albino rat | oral, 50 mg/kg, 3 h | baseline: vehicle | inhibition | 44.6% |
| CC(C)C[C@H](NC(=O)C[C@H](O)[C@H](CC(C)C)NC(=O)[C@H](Cc1c[nH]cn1)NC(=O)CNC(=O)[C@@H](NC(=O)[C@H](C)NC(=O)[C@H](Cc1c[nH]c2ccccc12)NC(=O)[C@H](CCC(N)=O)NC(=O)[C@@H](Cc1ccccc1)NC(=O)COCCOCCNC(=O)CCC(C(=O)O)N1CCN(CC(=O)O)CCN(CC(=O)O)CCN(CC(=O)O)CC1)C(C)C)C(N)=O (stereo partly shown) [lutetium-177 labelled] | – | – | BALB/c nu/nu mice, liver | intravenous, 50 pmol, 1 h, added: PA 300 µg | – | tissue uptake | 0.46 ± 0.08 %ID/g |
| Cn1cc(-c2ccc(-c3cncc(Cl)c3N3CCC4(CCNC4=O)CC3)cc2)cn1 | COLO 205 | gene expression, microarray, item: GTF2IRD2 mRNA | – | concentration not given, 6 h | baseline: untreated cells | log2 fold change | 5.68 |
